Measurements collected from several papers.
± marks the error that the study gave.

SMILES = CO[C@H]1CC[C@H](N2C(=O)CNc3ncc(-c4ccc(C(C)(C)O)nc4)nc32)CC1; test system = patients, urine; conditions = oral, 15 mg, day -1, geometric mean; measurement = urinary excretion Ae(0-24 h); result = 27500 ng
SMILES = C[C@@H](Oc1ccc(S(C)(=O)=O)cc1C(=O)N1C[C@@H]2C[C@]2(c2cc(C(F)(F)F)on2)C1)C(F)(F)F; test system = human; conditions = oral plus intravenous microtracer, dose not given; measurement = subjects with related eye disorders; result = 16.7%
SMILES = COc1cc2c(cc1OC)C(=O)C(CC1CCN(Cc3ccccc3)CC1)C2 (centres unmarked); assay = spirometry; test system = human subjects; conditions = dose not given; scale = reference: placebo; measurement = PEF; result = -0.286 L/s
SMILES = O=S(=O)(NCc1coc2ccc(F)cc12)c1cc(Cl)cc(Cl)c1O; assay = colloidal aggregate formation, dynamic light scattering; test system = 50 mM potassium phosphate buffer; conditions = 200 µM, pH 7.0, 1% DMSO; scale = higher = more aggregation; measurement = DLS scattered light intensity; result = 338000 counts/s
SMILES = O=C(Nc1nc2cccc(-c3ccc(CN4CCS(=O)(=O)CC4)cc3)n2n1)C1CC1; assay = item: body temperature increased; test system = human rheumatoid arthritis patients; conditions = oral, 150 mg once daily, 4 weeks, regardless of relatedness; measurement = treatment-emergent adverse events; result = 0%
SMILES = CC[C@H](C)[C@H](NC(=O)[C@H](Cc1ccccc1)NC(=O)[C@H](CCC(=O)O)NC(=O)[C@H](CCCCNC(=O)COCCOCCNC(=O)COCCOCCNC(=O)CC[C@H](NC(=O)CCCCCCCCCCCCCCCCC(=O)O)C(=O)O)NC(=O)[C@H](C)NC(=O)[C@H](C)NC(=O)[C@H](CCC(N)=O)NC(=O)CNC(=O)[C@H](CCC(=O)O)NC(=O)[C@H](CC(C)C)NC(=O)[C@H](Cc1ccc(O)cc1)NC(=O)[C@H](CO)NC(=O)[C@H](CO)NC(=O)[C@@H](NC(=O)[C@H](CC(=O)O)NC(=O)[C@H](CO)NC(=O)[C@@H](NC(=O)[C@H](Cc1ccccc1)NC(=O)[C@@H](NC(=O)CNC(=O)[C@H](CCC(=O)O)NC(=O)C(C)(C)NC(=O)[C@@H](N)Cc1cnc[nH]1)[C@@H](C)O)[C@@H](C)O)C(C)C)C(=O)N[C@@H](C)C(=O)N[C@@H](Cc1c[nH]c2ccccc12)C(=O)N[C@@H](CC(C)C)C(=O)N[C@H](C(=O)N[C@@H](CCCNC(=N)N)C(=O)NCC(=O)N[C@@H](CCCNC(=N)N)C(=O)NCC(=O)O)C(C)C; assay = QT interval corrected for heart rate, 12-lead Holter ECG; test system = healthy human subjects; conditions = subcutaneous, 1.5 mg once weekly, 30 h post-dose, steady state; scale = reference: placebo, time-matched baseline; measurement = placebo-subtracted change in QTcI; result = -4.6 ms
SMILES = Cn1cc([C@H]2C[C@H]3CSC(N)=N[C@@]3(c3ccc(F)cc3F)CO2)cn1; test system = male 129/SVE mouse, brain; conditions = subcutaneous, 10 mg/kg, 18 h; measurement = brain concentration; result = 37 nM
SMILES = COc1cc(C(=O)N2CCC3(CC2)CC(=O)c2c(cnn2C(C)C)C3)cc(-c2ccc(C(=O)O)cc2)n1; assay = item: HDL cholesterol; test system = human, fasting serum; conditions = 3 mg every 12 h, day 13, adjusted geometric mean; scale = reference: baseline and placebo; measurement = placebo-adjusted change from baseline; result = -6%
SMILES = CC(C)(C(=O)N1CCOc2c(C#N)cncc2C1)C(F)F; assay = item: Cardiac disorders; test system = human; conditions = oral, 20 mg once daily, 14 days, multiple ascending dose; measurement = subjects with adverse event; result = 12.5%
SMILES = CCNCCCNC/C=C\CNCCCNCC; assay = LC-MS/MS; test system = cancer patients, plasma; conditions = intravenous infusion, 150 mg, 60 min infusion, median, cycle 1; measurement = volume of distribution; result = 6.69 L/kg
SMILES = O=C1NCCc2nc(OCc3cccc(F)c3)ccc21; assay = item: Lacrimation; test system = Sprague-Dawley rat male; conditions = oral, 100 mg/kg, 0 min; scale = reference: baseline, direction not given; measurement = Irwin test score; result = 0
SMILES = O=S(=O)(Nc1cc(-n2cccc2)ccc1F)c1cc(Cl)cc(Cl)c1O; assay = colloidal aggregate formation, dynamic light scattering; test system = 50 mM potassium phosphate buffer; conditions = 200 µM, pH 7.0, 1% DMSO; scale = higher = more aggregation; measurement = DLS scattered light intensity; result = 4.08e+08 counts/s
SMILES = CN1C[C@H](COc2nccc3c(NCc4ccco4)cc(Cl)nc23)OC1=O; test system = rabbit, isolated Langendorff heart; conditions = dose not given; measurement = effect on QRS; result = negative
SMILES = COc1ccc(-n2nc(C(N)=O)c3c2C(=O)N(c2ccc(N4CCCCC4=O)cc2)CC3)cc1; assay = population PK model (NONMEM); test system = human, plasma; conditions = oral, full model; measurement = CL renal/F; result = 21.5 ± 2.52 mL/min
SMILES = O=C(OC(C(F)(F)F)C(F)(F)F)N1CCN(Cc2cccc(Oc3ccccc3)c2)CC1; assay = PET blocking study; test system = rhesus monkey, brain HIP; conditions = 0.03 mg/kg, compound pretreatment, together with: [18F]T-401 tracer; measurement = k2; result = 0.098 min⁻¹
SMILES = COc1ccnc(C(=O)NC(CO)C(=O)O)c1O (racemic); assay = soil adsorption; test system = soil; conditions = pH 6.9, organic carbon 0.8 %; measurement = Freundlich coefficient KF; result = 5.9 mL/g
SMILES = CCOc1c([C@H](C)n2nc(C)c3c(N)ncnc32)cc(Cl)c(F)c1[C@@H]1CNC(=O)C1; assay = ECG; test system = previously treated B-cell malignancy patients; conditions = oral, 10 mg once daily, baseline QTcF ≤450 ms; measurement = observations ΔQTcF >30 ≤60 ms; result = 0%
SMILES = CCO[C@H]1CCN(Cc2c(OC)cc(C)c3[nH]ccc23)[C@H](c2ccc(C(=O)O)cc2)C1; test system = human severe hepatic impairment, plasma; conditions = oral, 200 mg single dose, geometric mean; measurement = total Cmax; result = 3260 ng/mL
SMILES = Cl.[2H]C([2H])([2H])CC(=O)c1cnc(NC(=O)C2CC2)cc1Nc1cccc(-c2ncn(C([2H])([2H])[2H])n2)c1OC; test system = human, fasted, multiple dose; conditions = oral, 40 mg twice daily, tablet, day 14, geometric mean; measurement = Ctrough; result = 226 ng/mL
SMILES = Cc1c(C(=O)O)ccc2c3n(nc12)[C@@H]1[C@H](C3)N(CC2CC2)[C@@]2(C(=O)Nc3cc(Cl)ccc32)[C@H]1c1cccc(Cl)c1F; assay = phase Ia trial, item: Nausea; test system = cancer patients; conditions = oral, dose not given, all patients grade ≥3; measurement = adverse event incidence; result = 7.4%
SMILES = CC(C)[C@@H](CS(=O)(=O)C(C)C)N1C(=O)[C@@](C)(CC(=O)O)C[C@H](c2cccc(Cl)c2)[C@H]1c1ccc(Cl)cc1; test system = FVB Abcb1a/b-/- mice, plasma; conditions = intravenous, 20 mg/kg; measurement = volume of distribution; result = 0.628 L/kg
SMILES = O=S(=O)(Nc1ccc(F)c2cnccc12)c1cc(Cl)cc(Cl)c1O; assay = colloidal aggregate formation, dynamic light scattering; test system = 50 mM potassium phosphate buffer; conditions = 200 µM, pH 7.0, 1% DMSO; scale = higher = more aggregation; measurement = DLS scattered light intensity; result = 760000 counts/s
SMILES = NC(=O)N1c2ccccc2C=Cc2ccccc21; assay = item: body temperature increased; test system = human male; conditions = oral, dose not given, CTCAE on-treatment AEs; measurement = adverse events incidence; result = 7%
SMILES = COc1ccnc(C(=O)NCC(=O)O)c1O; assay = soil adsorption; test system = clay soil; conditions = pH 7.6, organic carbon 1.7 %; measurement = Freundlich coefficient KF; result = 6.19 mL/g
SMILES = O=C(/C=C/c1ccccc1)Nc1ccc(C(=O)Nc2nccs2)cc1; assay = haemolysis; test system = sheep erythrocytes; conditions = 1 h, pH 7.5; measurement = HC50; result = > 128 µg/mL
SMILES = NC1(C(=O)N[C@@H](CCO)c2ccc(Cl)cc2)CCN(c2nc[nH]c3nccc2-3)CC1; test system = metastatic CRPC patients; conditions = 400 mg b.i.d., any grade, treatment-related, together with: enzalutamide 160 mg daily; measurement = incidence of Anaemia; result = 0%
SMILES = CNCCOC12CC3(C)CC(C)(CC(Cn4ncc(-c5ccc(N6CCc7cccc(C(=O)Nc8nc9ccccc9s8)c7C6)nc5C(=O)O)c4C)(C3)C1)C2; test system = beagle dog, male, anaesthetised; conditions = intravenous bolus, 0.03 mg/kg, 90 min; scale = reference: baseline; measurement = heart rate change; result = -4%
SMILES = Cc1nc(-c2ccc(OCC(C)C)c(C#N)c2)sc1C(=O)O; test system = human, plasma; conditions = oral, 20 mg, together with: verinurad 10 mg; scale = reference: test over reference; measurement = geometric mean ratio Cmax; result = 93.7
SMILES = CCCCC1=NC2(CCCC2)C(=O)N1Cc1ccc(-c2ccccc2S(=O)(=O)Nc2noc(C)c2C)c(COCC)c1; test system = healthy adult volunteers, plasma; conditions = oral, 200 mg, 14 days repeated dosing, fasted, crushed tablet; measurement = Cmax; result = 5530 ng/mL
SMILES = COc1cc(F)c(NS(=O)(=O)c2cc(Cl)ccc2O)cc1OC; assay = colloidal aggregate formation, dynamic light scattering; test system = 50 mM potassium phosphate buffer; conditions = 200 µM, pH 7.0, 1% DMSO; scale = higher = more aggregation; measurement = DLS scattered light intensity; result = 502000 counts/s
SMILES = O=c1[nH]c(=O)n([C@H]2C[C@H](O)[C@@H](CO)O2)cc1CCCCC[18F]; test system = CD-1 nu/nu male mice, RG2 tumour, blood; conditions = intravenous, dose not given, 2 h, co-injection; measurement = blood concentration; result = 0.16 ± 0.05 %ID/g
SMILES = CSc1nc(C)c(Cl)c(O)n1; assay = haemolysis; test system = sheep erythrocytes; conditions = 1 h, pH 7.5; measurement = HC50; result = > 128 µg/mL
SMILES = FC(F)(F)c1ccc(CNc2ccc(Cc3c[nH]c4ncc(Cl)cc34)cn2)cn1; test system = patients with advanced solid tumours; conditions = oral, 1000 mg/day, TGCT cohort, grade ≥3; measurement = dry mouth incidence; result = 0%
SMILES = CCN1/C(=C/C(C)=O)Sc2ccc(F)cc21; test system = cynomolgus monkey; conditions = oral, 100 mg/kg, 2 h post-dose; scale = reference: pre-dose; measurement = heart rate change; result = 116 ± 21.5%
SMILES = CC(C)c1nc(N(C)S(C)(=O)=O)nc(-c2ccc(F)cc2)c1/C=C/[C@@H](O)C[C@@H](O)CC(=O)O; assay = item: respiratory, thoracic, mediastinal disorders; test system = healthy men; conditions = oral, dose not given, 8 days, treatment-emergent, crossover trial; measurement = subjects with adverse event; result = 0%
SMILES = C[C@]1(Cn2ccnn2)[C@H](C(=O)O)N2C(=O)C[C@H]2S1(=O)=O; test system = human whole blood; conditions = concentration not given, 8 h, 4 °C; measurement = deviation from nominal concentration; result = 8.3%
SMILES = N#C[C@@]1(c2ccc3c(N)ncnn23)O[C@H](CO)[C@@H](O)[C@H]1O; test system = dog, plasma; conditions = intravenous, 2 mg/kg; measurement = MRT(0-inf); result = 4.03 h
SMILES = N#Cc1ccc2c(c1)[C@H]1CCCN(C(=O)c3ccc4[nH]cnc4c3)[C@H]1C2; test system = human females; conditions = 40 mg, end of trial; measurement = total testosterone level; result = 1 nmol/L
SMILES = Cc1cnc(N2CC3(CCOCC3)C2)c(C(=O)Nc2ccc(C(=O)N3CCc4cc(C(=O)Nc5c(C)cccc5F)sc4-c4ccccc43)cc2)c1; test system = human, nasal mucosal lining fluid; conditions = inhaled, 5 mg twice daily, 60 h; measurement = concentration; result = 9900 ng/mL
SMILES = O=C(O)c1sccc1S(=O)(=O)NCCn1ccc2c(Br)cccc21; assay = colloidal aggregate formation, dynamic light scattering; test system = 50 mM potassium phosphate buffer; conditions = 200 µM, pH 7.0, 1% DMSO; scale = higher = more aggregation; measurement = DLS scattered light intensity; result = 1.48e+06 counts/s
SMILES = CCc1cc(C(=O)NC)c2nccc(N3CCc4c(cc(Cn5ccnc5)cc4-c4cn(C)nc4C(F)(F)F)C3=O)c2c1; test system = Sprague Dawley rat; conditions = oral, 50 mg/kg once daily, 7 days; scale = reference: vehicle; measurement = kidney weight change; result = 6.18%
SMILES = Cc1ccc([C@@H]2O[C@H](CO)[C@@H](O)[C@H](O)[C@H]2O)cc1Cc1ccc(-c2ccc(F)cc2)s1; test system = Japanese type 2 diabetes patients; conditions = 25 mg, day 18, 24 h urine collection; scale = reference: baseline; measurement = urinary potassium excretion change; result = -4.96 mEq
SMILES = O=C(CCCCCCC(=O)Nc1ccc(CC[18F])cc1)NO; test system = athymic nu/nu male mice, LNCaP xenograft, spleen; conditions = intravenous, 2 h; measurement = tissue uptake; result = 0.9 ± 0.2 %ID/g
SMILES = O=C(COc1ccc(Cl)cc1)NC12CC(c3nnc([C@H]4C[C@@H](OC(F)(F)F)C4)o3)(C1)C2; test system = healthy human both sexes, plasma; conditions = oral, 260 mg once daily, day 1, mean; measurement = Cmax; result = 3890 nM
